Measurements collected from several papers.
Parts stem from different laboratories: compare values within a part only.

Block 1 — method: protein binding microarray; form: double-stranded DNA, one strand shown; sample: in vitro; concentration: not given; baseline: not given; direction: higher = stronger binding
Target: Histone acetyltransferase KAT6A, both winged helices, GST fusion (KAT6A, Homo sapiens, UniProt Q92794, residues 1-181)
Setting: 8-mer, flanks averaged, mean of 2 arrays, mostly near background
Target sequence (chain): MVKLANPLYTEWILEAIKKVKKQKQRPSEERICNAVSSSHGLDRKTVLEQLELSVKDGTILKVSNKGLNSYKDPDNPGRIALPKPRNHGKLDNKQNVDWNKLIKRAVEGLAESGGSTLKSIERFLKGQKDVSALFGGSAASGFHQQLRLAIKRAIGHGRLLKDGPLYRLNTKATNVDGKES
The E-score of `ACCAAGGA` is reported as -0.0785.
The E-score of `GAGTGCAC` is reported as -0.147.
For `CTCCAGAA`, the E-score was -0.082.
`ACATTCAT` has an E-score of -0.122.
The E-score of `ATATTGTC` is reported as -0.0111.
`ACCGGACG` has an E-score of 0.233.

Block 2 — method: protein-binding microarray; form: double-stranded DNA, one strand shown; sample: in vitro; concentration: 250 nM; setting: 60-bp whole probe; with: salmon DNA 0.4 mg/ml; baseline: random background probes; direction: higher = stronger binding
Target: Interferon regulatory factor 7, full length, phosphomimetic (IRF7, Homo sapiens, UniProt Q92985, residues 1-503, S101K/S471D/S472D/S475D/S476D/S477D/S483D/S484D/S487D)
UniProt Q92985, sequence (whole entry, unmodified, looked up): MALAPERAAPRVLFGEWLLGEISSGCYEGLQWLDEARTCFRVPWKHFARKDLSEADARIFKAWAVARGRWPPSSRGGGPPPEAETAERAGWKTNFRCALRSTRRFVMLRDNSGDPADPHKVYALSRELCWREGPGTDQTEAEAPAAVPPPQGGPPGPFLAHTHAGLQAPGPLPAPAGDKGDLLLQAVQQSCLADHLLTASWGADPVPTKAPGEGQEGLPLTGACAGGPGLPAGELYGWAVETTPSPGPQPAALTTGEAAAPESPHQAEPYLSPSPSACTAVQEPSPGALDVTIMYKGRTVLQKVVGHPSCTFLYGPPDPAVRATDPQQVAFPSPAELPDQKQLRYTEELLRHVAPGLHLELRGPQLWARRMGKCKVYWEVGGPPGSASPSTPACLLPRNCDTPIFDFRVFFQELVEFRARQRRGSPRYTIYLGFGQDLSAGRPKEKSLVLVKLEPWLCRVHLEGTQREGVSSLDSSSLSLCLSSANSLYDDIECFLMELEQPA
With `GCCTAGCACGACGGACTGGGGTATCGGCACGTGCTAGTCTTGATTCGCTTGACGCTGCTG` the log fluorescence was -0.952 z-score.
`GCCTAGCACTTAGATATCAGTATCGACTAGTGCTAGGTCTTGATTCGCTTGACGCTGCTG` has a log fluorescence of 0.048 z-score.
`GCCTAGCACGTATATATGTGTATATATAAGTGCTAGGTCTTGATTCGCTTGACGCTGCTG` gave a log fluorescence of 0.36 z-score.
`GCCTAGCACCCTAGCCTCCCAGCCCAGCAGTGCTAGGTCTTGATTCGCTTGACGCTGCTG` gave a log fluorescence of -0.381 z-score.

Block 3 — method: protein-binding microarray; form: double-stranded DNA, one strand shown; sample: in vitro; concentration: not given; direction: higher = stronger binding
Target: Max-binding protein MNT, bHLH-zipper, MAX partner unstated (MNT, Homo sapiens, UniProt Q99583, residues 220-300)
Setting: k-mer, scored over probes, only values ≥0.25
Construct (chain): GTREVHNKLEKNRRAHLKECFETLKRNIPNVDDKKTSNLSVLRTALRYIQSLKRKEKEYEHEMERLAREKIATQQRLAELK
The E-score of `GAGCACGC` is reported as 0.434.
`ACACGGGA` has an E-score of 0.287.
`CACGCTTA` gave an E-score of 0.31.
`ACGACACG` has an E-score of 0.33.

Single results of other studies
The fold induction of `PhoQ, residues 284 288 289 292 302 303 ALAMYF` is reported as 12.8 (PhoP, residues 12 14 15 18 19 HLGGL (Escherichia coli, UniProt P23836); Sort-seq, item: YFP reporter; E. coli; PhoQ-PhoP variant library, with: 10 µM Mg2+; baseline: high Mg2+ state, higher = stronger signaling).

For quick reference, copied from above (block 1):
For `CTCCAGAA`, the E-score was -0.082.
